Published values from different studies.
Every numbered part comes from another study and shows a few of its results, in no order.

Study 1
Target: RNA binding protein fox-1 homolog 2, RRM domain, GST-SBP tag (RBFOX2, Homo sapiens, UniProt O43251-10, residues 100-194)
Method: RNA Bind-n-Seq
Molecule type: RNA
Sample: in vitro
Tested at: 365 nM
Setting: natural RNA segment, single round, ends assumed
Reference: no-protein control
Reading: higher = stronger binding
All sequences stand within: GGGAGUUCUACAGUCCGACGAUC … UGGAAUUCUCGGGUGCCAA
Residues (chain): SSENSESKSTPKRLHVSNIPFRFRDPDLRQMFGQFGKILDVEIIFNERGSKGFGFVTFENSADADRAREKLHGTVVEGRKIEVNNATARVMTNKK
Oligonucleotide	RBNS enrichment (R)
UGAGAGGCAUUGGGCUAAGAAAGAAAAGACUGUUGUAUAAUACCUUGUUCAAUGGUUGUAUUUAGUGAGCUCAUAGAGGUCCAUCAUAUCAUGACCGAGCUAGGUUGUGU	1.4
CAUCCCAGUGGCCGGGGAGUCACCCCCUCACGCAGAGACCUUGCCUGUGCCUCAGAUGGCUUGCUGCCAGCUGUCAGAUACACAUAGAAGCUUAUAUCUCUCAAAUUAAU	0.487
CUGCACGGCUAGGGAGUGUCAUCUCAGCUGAAGGCCUCACCCAAGACAGGCAGACAGACAUGAACAUUACUGAUGUGCUUUUCCGACCUGCUAUGUGCAGGCAGGCAGGG	0.582
ACUGACUGAUAGUAAAACUCAUGGAAGAACUCAAGAGAUGUCGAGACCAAAAGUCCCCAGUGACACCAACACAAAGCUCGCAGUUCCGUUUCCUUCUCGUUCCUAUUCUC	0.542
CAGCAGCUAGUGGGAGAGCACCAGUUGGGCCUAAUCCUGCCUCAUCAUUCUUGGCAGGAAUCUGCAAAUGGAAACAUUGUGAGUAUCAGCAAUCUGGGAAGUGACAGGGU	0.923
ACACCCCCUUCUUCCUGAGAAUUCUGGUGCCUCUAAAGCCCCUCCUUGCCACUCAGGGUUUUAGUGGGUGCUCCCACUGCUCAGUGUACCCAUGAGCUGUCGUCAUUCAC	0.481
UUUCCAAGGAGAGCAGCUUUCUCCACAGGAACACAGUAACAAAAGAGGUCCGCCGCCAUCCACACCCAGCCAAGACACCUCAGAGGCCAUAGGGACAACCUCCUUGCUGG	0.313
UAUCACACAAAGGCUGAUUUCUAAAAUAUAUAUAUAUUAAAACAAUAAAGUAUUUAUUUUGCCUAAAGUGUUUUAGUGGUUUCUUAAACUGCAACAUGAAGAUUUUGAAU	1.24
UAGUUAUUUCCAAAUAAAAAGAAACCAACUCUUACCAGGUCUUGGACUGUGAUGUCAUAUUAUUCAGUUUUAUGCUUGUUCCUGAGCAGAACUCAUAAGAGUGACAUAGU	0.289
GUGCCAUUUCAUGUCCUGUGUCAGUUUAUGUUUUGGUCCACUUUUCCAGUAUUUUAGUGGACCCUGAAAUGUGUGUGAUGUGACAUUUGUUAUUUUCAUUAGCAAAAAAA	0.897
AAGAAUCCAGAGGUGAAGAGGGAGACGGCUCUUAGCUGCGUUCAAGGCGGGGCCCUCGGGAGCCCAGGUGCAGAGCGAGGCCGUGUCCAGGAGCCGGCGUCCCUCAGUGC	0.502
UUGCCUGGACUGCUGGAAACACUAGGUCUCCUGUGCGUGUGUGGAAAGGUAAUAGUGGCACAAUGUUGCUAACUUUAGACAACUUUUAAUAAAUAUGGUUUCGUAAAGAA	1.13

Study 2
Target: Sal-like protein 4, full length isoform B (SALL4, Homo sapiens, UniProt Q9UJQ4-2, residues 1-616)
Method: universal PBM
Molecule type: double-stranded DNA, one strand shown
Sample: in vitro
Tested at: not given
Setting: 8-mer, flanks averaged, mean of replicates
Reading: higher = stronger binding
Oligonucleotide	E-score
ATTCGGGA	-0.091
AAAGGGAC	-0.123
ACTGAGGA	-0.169
CATCTTGC	-0.0221
CGGTATGA	0.148
CTGGAGCA	-0.193
TAAACACA	0.188
CATGATGC	0.0542
GGATCTTA	0.0104
ATACTCCG	-0.00106
CGTCATTC	0.101
CCAGGAGC	-0.344
CTGCGGCA	-0.116
CGACTTGC	-0.152
TGTAAAAA	0.309
CCCCGGGC	-0.425
CCGAGGAA	-0.234
GACAAATC	0.0663
GCTACCTA	0.0408
GTTAGCAA	0.134
GTTCTATA	0.22
ACCAACGC	-0.107
GTAACAAA	0.215
ATTTCTGG	0.174
CCCGGATC	-0.347

Study 3
Target: Transcriptional repressor CTCF (CTCF, Homo sapiens, UniProt P49711, residues 1-727, full length assumed)
Chain of UniProt P49711 (whole entry, looked up): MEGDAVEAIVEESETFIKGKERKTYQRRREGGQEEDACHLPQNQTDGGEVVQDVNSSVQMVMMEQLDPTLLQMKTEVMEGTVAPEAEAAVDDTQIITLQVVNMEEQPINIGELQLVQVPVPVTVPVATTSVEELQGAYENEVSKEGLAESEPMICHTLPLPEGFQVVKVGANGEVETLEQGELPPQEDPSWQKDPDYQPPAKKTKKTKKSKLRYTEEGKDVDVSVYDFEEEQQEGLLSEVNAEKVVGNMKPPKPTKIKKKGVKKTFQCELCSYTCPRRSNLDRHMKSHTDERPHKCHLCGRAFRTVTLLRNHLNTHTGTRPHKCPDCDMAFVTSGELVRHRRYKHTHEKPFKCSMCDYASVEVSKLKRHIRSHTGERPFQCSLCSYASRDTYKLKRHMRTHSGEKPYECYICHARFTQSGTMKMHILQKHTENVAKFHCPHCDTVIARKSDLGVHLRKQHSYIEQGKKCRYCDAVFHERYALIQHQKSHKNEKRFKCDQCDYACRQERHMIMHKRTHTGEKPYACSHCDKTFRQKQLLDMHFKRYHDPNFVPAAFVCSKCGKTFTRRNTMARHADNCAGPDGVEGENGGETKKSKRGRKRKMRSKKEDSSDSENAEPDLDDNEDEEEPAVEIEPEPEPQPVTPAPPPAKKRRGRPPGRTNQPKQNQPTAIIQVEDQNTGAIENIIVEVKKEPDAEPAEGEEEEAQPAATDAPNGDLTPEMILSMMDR
Method: protein-binding microarray
Molecule type: double-stranded DNA, one strand shown
Sample: in vitro
Tested at: not given
Setting: k-mer, scored over probes, only values ≥0.25
Reading: higher = stronger binding
Oligonucleotide	E-score
ATAAACAT	0.392
ATTGTATA	0.317
AGCGCTAT	0.36
AACGGCCT	0.319
TATAAGCA	0.286
ACCACATA	0.263
ATAATGAT	0.308
CGCGCAAC	0.272
AATGCGAC	0.276
AAATTCAT	0.272
TAGCGCGA	0.272
ATGTAATC	0.251
ATATTACG	0.263
TACATATA	0.35
AACGTTAT	0.269
CTCATTAC	0.31
ATAATTAC	0.324
GTGAATTA	0.304

Study 4
Target: Prothrombin, mature alpha-thrombin (F2, Homo sapiens, UniProt P00734)
Method: aptamer microarray, sandwich
Molecule type: DNA with 2'F-ANA
Sample: in vitro
Tested at: 200 nM
Setting: whole 15-mer aptamer, many near background
With: Cy3 exosite-II aptamer, 400 nM
Reading: higher = stronger binding
Oligonucleotide: GGTTGGTGTGGTTGG
Modification	mean fluorescence intensity [a.u.]
2'F-ANA at 2 6 9 10	114
2'F-ANA at 6 9 10 13	137
2'F-ANA at 2 4 5 6 9 10 14 15	50.6
2'F-ANA at 1 2 7 10 11 13 14 15	52.8
2'F-ANA at 2 3 4 5 7 8 10 11 15	92.7
2'F-ANA at 3 4 5 10 11 13 14	48.8
2'F-ANA at 1 2 4 7 8 9 10 12 15	62.1
2'F-ANA at 1 4 5 9 10 14 15	88
2'F-ANA at 2 7 11 12 14	259
2'F-ANA at 1 4 5 6 11 12 13	77.3
2'F-ANA at 5 6 12 14 15	98.9
2'F-ANA at 4 5 6 8 9 11 12 14 15	52
2'F-ANA at 1 2 3 5 7 9 11 15	53.7
2'F-ANA at 5 7 14 15	47.7
2'F-ANA at 6 7 8 9 10 11 13 14	107
2'F-ANA at 4 5 6 7 9 12 13	187
2'F-ANA at 1 3 4 5 9 13	48
2'F-ANA at 1 2 3 4 9 10 11 12 13 14 15	53.6
2'F-ANA at 1 5 7 8 10 12 13 15	84.7
2'F-ANA at 3 5 6 7 8 9 10 12 13	57.1
2'F-ANA at 1 2 6 8 9 10 15	56
2'F-ANA at 1 2 4 5 6 10 13 14 15	48.1
2'F-ANA at 1 2 5 6 7 12 15	101
2'F-ANA at 1 2 5 7 8 9 10 14 15	45.5
2'F-ANA at 3 4 5 8 10 12 15	60.7

Study 5
Target: Fragile X messenger ribonucleoprotein 1, C-terminal low-complexity region (Fmr1, Mus musculus, UniProt P35922)
Method: RNA Bind-n-Seq
Molecule type: RNA
Sample: in vitro
Tested at: 200 nM
Setting: whole 134-nt RNA, ends assumed
With: 150 mM LiCl
Reference: input library
Reading: higher = stronger binding
Each molecule: 7-deaza-guanosine replaces G
All sequences stand within: GGGAGUUCUACAGUCCGACGAUC … UGGAAUUCUCGGGUGUCAAGG
Oligonucleotide	log2 enrichment
CACAGACAACCCGCACCCACACAGACACAGAGGGAAGGGGUUGGGAUGGGGACAGGGUGCACAGCAGGGCGGGGUAGGACCCCAGCCCCU	-0.975
CGGCAGUAGCAGCAGCGCCGGGUCCCGUGCGGAGGUGCUCCUCGCAGAGUUGUUUCUCGAGCAGCGGCAGUUCUCACUACAGCGCCAGGA	-1.98
AAGUCCUGUGCUACACAUCGUAUGUACCGAAUCGGGAAAGGGGAAAGGGAAAGGGGAAAGUAUUAUGUUACGCCGUUCGGAUCUGCACUU	0.381
CACAGACAACACGCACCCACACAGACACAGAGGGAAGGGGUUGGGAUGGGGACAGGGCGCACAGCAGGGCGGGGUAGGACCCCAGCCCCU	0.326
UGUCUUUCCUGGUGACUAGGAUGUCGUCGGAGGAGGACAAGAGCGUGGAGCAGCCGCAGCCGCCGCCACCACCCCCCGAGGAGCCUGGAG	-0.13
CACAGACAACACGCACCCACACAGACACAGAGGGAAGGGGUUGGGAAGGGGACAGGGUGCACAGCAGGGCGGGGUAGGACCCCAGCCCCU	0.566
GCAGGAAGUAAAAACAAAUGGAAAUGCUUCGGAUAGUGGCAGGGGUGGGGGUUGCUAAGGAAAGGGUGGGAUGUGAGUGGGUAAAGAGUU	1.34
CUCAAGUCCUGUGCUACACAUCGUAUGUACCGAAUCGGCCCGGGCCCGGCCCGGAAAGUAUUAUGUUACGCCGUUCGGAUCUGCACUUCC	0.574
AAGUCCUGUGCUACACAUCGUAUGUACCGAAUCGGGUUUGGGUUUGGGAAAAAGGGAAAGUAUUAUGUUACGCCGUUCGGAUCUGCACUU	-1.63
UAACUUUAGAGGAGGAUCUGAUGGAUAUGGCAGAGGACGUGGAUUUGGGGAUGGCUAUAAUGGGUAUGGAGGAGGACCUGGAGGUGGCAA	0.424
CUGUGCUACACAUCGUAUGUACCGAAUCGGGGAAAAAAAGGGGAAAAAAAGGGGUUUGGGGAAAGUAUUAUGUUACGCCGUUCGGAUCUG	-1.19

For quick reference, copied from above (study 2):
Oligonucleotide	E-score
AAAGGGAC	-0.123
ACTGAGGA	-0.169
CATCTTGC	-0.0221
CGGTATGA	0.148
CTGGAGCA	-0.193
TAAACACA	0.188
CATGATGC	0.0542
GGATCTTA	0.0104
ATACTCCG	-0.00106
CGTCATTC	0.101
